Experimental data collected from several papers.
± marks the error that the study gave.

SMILES | test | system | conditions | AUC(0-inf) [µg·h/mL]
C=CC(=O)Nc1cc(Nc2nccc(-c3cn(C)c4ccccc34)n2)c(OC)cc1N(C)CCN(C)C | – | male Sprague-Dawley rat, plasma | oral, 10 mg/kg, PEG200 pretreatment only | 0.539 ± 0.144
O=C(O)/C=C/c1ccc(O)c(O)c1 | UPLC-MS/MS | Wistar rat, microcirculation dysfunction model, plasma | oral, 100 mg/kg Salvia miltiorrhiza stem-leaf extract FS | 0.0553 ± 0.0176
C[C@@H](CNCc1ccccc1)N1C[C@H](CCCNC(=N)N)N(CCc2cccc(F)c2)C1=S | – | rat, plasma | intravenous, 5 mg/kg | 1.96 to 2.68
CC(C)=CCC[C@](C)(O[C@@H]1O[C@H](CO)[C@@H](O)[C@H](O)[C@H]1O)[C@H]1CC[C@]2(C)[C@@H]1[C@H](O)C[C@@H]1[C@@]3(C)CC[C@H](O)C(C)(C)[C@@H]3[C@@H](O[C@@H]3O[C@H](CO)[C@@H](O)[C@H](O)[C@H]3O[C@@H]3O[C@@H](C)[C@H](O)[C@@H](O)[C@H]3O)C[C@]12C | – | Sprague Dawley rat, male, plasma | oral, 45 mg/kg, pure ginsenoside mixture in water | 2.5 ± 0.9
CC(C)C[C@H]1C(=O)N2CCC[C@H]2[C@]2(O)O[C@](NC(=O)[C@@H]3C=C4c5cccc6[nH]c(Br)c(c56)C[C@H]4N(C)C3)(C(C)C)C(=O)N12 | – | male Sprague-Dawley rats, plasma | intravenous, 0.1 mg/kg, together with: DAL 1.7 mg/kg plus HAL 0.7 mg/kg | 0.595 ± 0.0832
CCc1cc2c(cc1N1CCC(N3CCOCC3)CC1)C(C)(C)c1[nH]c3cc(C#N)ccc3c1C2=O | – | moderate hepatic impairment, plasma, total | oral, 300 mg single, fed | 3.28
CC(C)=CCC[C@](C)(O[C@@H]1O[C@H](CO)[C@@H](O)[C@H](O)[C@H]1O)[C@H]1CC[C@]2(C)[C@@H]1[C@H](O)C[C@@H]1[C@@]3(C)CC[C@H](O[C@@H]4O[C@H](CO)[C@@H](O)[C@H](O)[C@H]4O[C@@H]4O[C@H](CO)[C@@H](O)[C@H](O)[C@H]4O)C(C)(C)[C@@H]3CC[C@]12C | – | Sprague Dawley rat, male, plasma | oral, 42 mg/kg, in red ginseng extract | 20.3 ± 4.7
C=CC(N)CCC(=O)O (stereo not shown) | – | male Sprague-Dawley rat, plasma | oral, 1.0 mg/kg, formulation 4, together with: proline and tryptophan 100 mg/kg each | 1.77 ± 0.086
O=C(/C=C/c1ccc(O)c(O)c1)O[C@H](Cc1ccc(O)c(O)c1)C(=O)O | UPLC-MS/MS | Wistar rat, microcirculation dysfunction model, plasma | oral, 100 mg/kg Salvia miltiorrhiza stem-leaf extract FT | 0.179 ± 0.127
CC(C)=CCC[C@](C)(O[C@@H]1O[C@H](CO[C@@H]2O[C@H](CO)[C@@H](O)[C@H](O)[C@H]2O)[C@@H](O)[C@H](O)[C@H]1O)[C@H]1CC[C@]2(C)[C@@H]1[C@H](O)C[C@@H]1[C@@]3(C)CC[C@H](O[C@@H]4O[C@H](CO)[C@@H](O)[C@H](O)[C@H]4O[C@@H]4O[C@H](CO)[C@@H](O)[C@H](O)[C@H]4O)C(C)(C)[C@@H]3CC[C@]12C | – | Sprague Dawley rat, male, plasma | oral, 86 mg/kg, in red ginseng extract | 93.6 ± 10.5

Excerpt of the above:
SMILES | test | system | conditions | AUC(0-inf) [µg·h/mL]
C[C@@H](CNCc1ccccc1)N1C[C@H](CCCNC(=N)N)N(CCc2cccc(F)c2)C1=S | – | rat, plasma | intravenous, 5 mg/kg | 1.96 to 2.68
